{"data": "Assay results gathered from unrelated publications", "note": "Numbered parts are unrelated; each lists some results of a single study. Positions count from the first letter of the parent shown.", "sequence of UniProt P06239 (whole entry, looked up)": "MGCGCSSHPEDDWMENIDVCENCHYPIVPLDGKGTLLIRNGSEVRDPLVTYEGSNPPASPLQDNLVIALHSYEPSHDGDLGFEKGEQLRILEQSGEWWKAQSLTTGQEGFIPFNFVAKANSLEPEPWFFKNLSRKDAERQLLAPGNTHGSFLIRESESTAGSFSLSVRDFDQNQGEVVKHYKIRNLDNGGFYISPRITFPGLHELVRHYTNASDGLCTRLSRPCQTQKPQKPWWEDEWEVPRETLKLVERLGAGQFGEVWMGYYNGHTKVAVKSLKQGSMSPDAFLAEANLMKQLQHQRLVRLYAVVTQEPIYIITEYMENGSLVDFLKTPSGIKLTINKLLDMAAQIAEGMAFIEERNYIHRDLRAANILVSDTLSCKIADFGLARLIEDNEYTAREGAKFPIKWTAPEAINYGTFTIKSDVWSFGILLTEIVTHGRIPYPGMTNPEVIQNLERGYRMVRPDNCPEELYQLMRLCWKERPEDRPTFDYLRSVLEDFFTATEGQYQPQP", "sequence of UniProt P11802 (whole entry, looked up)": "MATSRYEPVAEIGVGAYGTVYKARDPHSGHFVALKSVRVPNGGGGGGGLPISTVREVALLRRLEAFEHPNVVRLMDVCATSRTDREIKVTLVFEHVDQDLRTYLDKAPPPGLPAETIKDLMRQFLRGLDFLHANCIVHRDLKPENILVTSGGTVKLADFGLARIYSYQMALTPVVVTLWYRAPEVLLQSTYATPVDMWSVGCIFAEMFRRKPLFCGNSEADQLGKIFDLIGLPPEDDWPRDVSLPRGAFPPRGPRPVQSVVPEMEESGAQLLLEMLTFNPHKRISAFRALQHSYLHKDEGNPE", "sequence of UniProt Q9UL54 (whole entry, looked up)": "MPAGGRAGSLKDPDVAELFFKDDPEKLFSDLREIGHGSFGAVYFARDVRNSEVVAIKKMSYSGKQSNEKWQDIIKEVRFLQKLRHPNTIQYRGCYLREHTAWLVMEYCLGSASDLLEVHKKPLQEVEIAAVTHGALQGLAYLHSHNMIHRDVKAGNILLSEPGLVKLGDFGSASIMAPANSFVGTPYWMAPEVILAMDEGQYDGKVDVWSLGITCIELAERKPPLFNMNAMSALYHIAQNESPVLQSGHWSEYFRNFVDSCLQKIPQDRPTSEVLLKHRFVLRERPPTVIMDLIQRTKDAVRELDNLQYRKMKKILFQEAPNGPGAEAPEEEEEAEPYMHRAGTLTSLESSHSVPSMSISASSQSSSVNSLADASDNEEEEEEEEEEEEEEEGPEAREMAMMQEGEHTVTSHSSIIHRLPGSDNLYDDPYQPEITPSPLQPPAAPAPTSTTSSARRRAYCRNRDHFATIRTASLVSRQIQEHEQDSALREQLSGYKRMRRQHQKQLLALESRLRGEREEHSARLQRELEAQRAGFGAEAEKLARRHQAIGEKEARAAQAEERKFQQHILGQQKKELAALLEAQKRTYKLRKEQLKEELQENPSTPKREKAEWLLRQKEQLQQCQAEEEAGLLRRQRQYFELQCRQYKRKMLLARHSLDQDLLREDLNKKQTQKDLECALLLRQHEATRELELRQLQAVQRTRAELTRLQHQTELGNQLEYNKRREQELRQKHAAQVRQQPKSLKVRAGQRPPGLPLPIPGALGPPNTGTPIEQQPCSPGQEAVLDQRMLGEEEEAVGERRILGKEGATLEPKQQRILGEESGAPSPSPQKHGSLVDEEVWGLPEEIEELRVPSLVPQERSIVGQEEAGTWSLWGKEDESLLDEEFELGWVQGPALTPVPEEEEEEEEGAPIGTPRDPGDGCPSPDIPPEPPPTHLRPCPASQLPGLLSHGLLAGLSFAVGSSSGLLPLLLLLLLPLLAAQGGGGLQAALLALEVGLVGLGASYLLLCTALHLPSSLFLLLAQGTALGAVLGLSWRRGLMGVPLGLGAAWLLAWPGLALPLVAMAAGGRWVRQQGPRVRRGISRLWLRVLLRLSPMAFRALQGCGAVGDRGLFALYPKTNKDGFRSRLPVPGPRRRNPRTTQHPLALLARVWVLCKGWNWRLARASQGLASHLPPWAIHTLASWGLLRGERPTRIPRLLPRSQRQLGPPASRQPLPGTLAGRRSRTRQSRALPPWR", "sequence of UniProt Q6PHR2 (whole entry, looked up)": "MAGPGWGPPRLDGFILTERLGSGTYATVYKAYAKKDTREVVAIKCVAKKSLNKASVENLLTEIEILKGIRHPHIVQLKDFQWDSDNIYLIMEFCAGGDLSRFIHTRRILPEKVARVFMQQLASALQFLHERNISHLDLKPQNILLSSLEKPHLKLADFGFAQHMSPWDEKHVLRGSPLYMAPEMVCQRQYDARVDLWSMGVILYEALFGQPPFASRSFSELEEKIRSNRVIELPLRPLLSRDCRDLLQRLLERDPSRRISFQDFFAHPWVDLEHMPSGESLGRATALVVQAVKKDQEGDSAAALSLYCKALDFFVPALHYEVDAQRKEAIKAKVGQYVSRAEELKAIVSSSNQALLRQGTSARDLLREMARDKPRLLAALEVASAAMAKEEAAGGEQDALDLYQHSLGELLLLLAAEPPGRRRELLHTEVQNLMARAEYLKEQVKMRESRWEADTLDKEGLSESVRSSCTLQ", "sequence of UniProt Q9UHD2 (whole entry, looked up)": "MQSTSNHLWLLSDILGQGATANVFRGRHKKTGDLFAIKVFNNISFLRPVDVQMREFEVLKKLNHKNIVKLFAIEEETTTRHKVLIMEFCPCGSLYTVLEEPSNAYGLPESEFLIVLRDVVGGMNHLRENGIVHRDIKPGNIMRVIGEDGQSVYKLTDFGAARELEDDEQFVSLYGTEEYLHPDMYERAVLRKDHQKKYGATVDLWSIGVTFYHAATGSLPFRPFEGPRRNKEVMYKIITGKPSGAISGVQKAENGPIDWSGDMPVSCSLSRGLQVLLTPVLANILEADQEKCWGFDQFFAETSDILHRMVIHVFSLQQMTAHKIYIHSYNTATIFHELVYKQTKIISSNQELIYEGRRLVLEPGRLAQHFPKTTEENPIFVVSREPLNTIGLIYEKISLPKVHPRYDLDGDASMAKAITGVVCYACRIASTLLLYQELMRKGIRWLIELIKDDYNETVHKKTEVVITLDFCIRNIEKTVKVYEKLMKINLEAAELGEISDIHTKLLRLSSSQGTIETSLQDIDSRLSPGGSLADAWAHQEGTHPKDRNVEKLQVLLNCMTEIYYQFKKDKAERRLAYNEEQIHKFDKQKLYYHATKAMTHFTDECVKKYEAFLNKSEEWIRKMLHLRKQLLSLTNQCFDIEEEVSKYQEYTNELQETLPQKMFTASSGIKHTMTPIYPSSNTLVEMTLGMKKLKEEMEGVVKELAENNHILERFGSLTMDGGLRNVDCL", "sequence of UniProt P10721 (whole entry, unmodified, looked up)": "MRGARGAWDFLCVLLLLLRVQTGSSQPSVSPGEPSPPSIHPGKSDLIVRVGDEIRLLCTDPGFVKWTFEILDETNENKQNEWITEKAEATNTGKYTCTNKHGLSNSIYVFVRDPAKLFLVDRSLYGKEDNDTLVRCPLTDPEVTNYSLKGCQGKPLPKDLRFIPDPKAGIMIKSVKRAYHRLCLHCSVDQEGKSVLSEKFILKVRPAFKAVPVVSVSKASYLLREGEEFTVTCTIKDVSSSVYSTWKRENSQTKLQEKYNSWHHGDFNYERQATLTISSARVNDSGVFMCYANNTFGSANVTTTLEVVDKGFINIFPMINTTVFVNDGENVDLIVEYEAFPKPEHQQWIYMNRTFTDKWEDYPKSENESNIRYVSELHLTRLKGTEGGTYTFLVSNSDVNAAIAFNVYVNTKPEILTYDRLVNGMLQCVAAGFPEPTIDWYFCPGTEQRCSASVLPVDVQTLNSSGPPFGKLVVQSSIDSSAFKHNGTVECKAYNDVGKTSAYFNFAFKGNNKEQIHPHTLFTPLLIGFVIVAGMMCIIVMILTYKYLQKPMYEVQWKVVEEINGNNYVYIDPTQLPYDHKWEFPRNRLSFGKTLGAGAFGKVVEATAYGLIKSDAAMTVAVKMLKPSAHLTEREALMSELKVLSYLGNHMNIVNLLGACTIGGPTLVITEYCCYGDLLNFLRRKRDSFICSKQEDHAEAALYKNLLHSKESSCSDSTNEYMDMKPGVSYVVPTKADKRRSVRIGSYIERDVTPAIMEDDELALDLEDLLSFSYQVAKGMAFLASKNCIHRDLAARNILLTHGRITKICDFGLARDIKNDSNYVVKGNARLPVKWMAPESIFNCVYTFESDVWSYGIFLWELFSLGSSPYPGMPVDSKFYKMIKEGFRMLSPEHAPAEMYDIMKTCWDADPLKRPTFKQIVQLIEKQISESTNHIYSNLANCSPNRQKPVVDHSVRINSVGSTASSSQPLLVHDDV", "sequence of UniProt Q15349 (whole entry, looked up)": "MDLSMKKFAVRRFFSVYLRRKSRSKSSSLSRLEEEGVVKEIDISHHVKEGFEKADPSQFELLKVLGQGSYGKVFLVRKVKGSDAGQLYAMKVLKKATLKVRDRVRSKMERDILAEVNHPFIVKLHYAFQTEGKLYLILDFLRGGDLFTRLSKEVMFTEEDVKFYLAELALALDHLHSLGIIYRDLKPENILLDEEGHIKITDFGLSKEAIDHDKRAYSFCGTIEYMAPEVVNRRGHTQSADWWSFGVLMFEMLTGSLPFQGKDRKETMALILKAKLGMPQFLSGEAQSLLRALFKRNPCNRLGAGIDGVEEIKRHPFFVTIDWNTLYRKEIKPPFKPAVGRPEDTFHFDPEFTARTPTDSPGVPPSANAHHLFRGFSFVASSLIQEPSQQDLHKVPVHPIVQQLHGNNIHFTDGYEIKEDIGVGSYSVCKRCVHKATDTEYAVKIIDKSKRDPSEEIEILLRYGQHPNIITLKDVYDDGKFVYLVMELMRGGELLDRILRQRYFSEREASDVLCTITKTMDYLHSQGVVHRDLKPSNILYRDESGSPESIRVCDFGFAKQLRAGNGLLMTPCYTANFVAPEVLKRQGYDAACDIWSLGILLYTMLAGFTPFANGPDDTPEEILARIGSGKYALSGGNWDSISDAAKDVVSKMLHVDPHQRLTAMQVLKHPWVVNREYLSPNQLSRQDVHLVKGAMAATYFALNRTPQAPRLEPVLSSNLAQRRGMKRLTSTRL"}
{"data": "Block 1", "Compound": "CC(C)CC(=O)N1CCc2nc(-c3ccc(Br)cc3)nc(N(C)Cc3ccccc3)c2C1", "read-out": "cell-free assay", "technique": "competition with immobilised ligand", "concentration": "0.1 µM"}
{"target": "Mast/stem cell growth factor receptor Kit (KIT, Homo sapiens, UniProt P10721, V559D)", "remaining binding": "100%"}
{"target": "Tyrosine-protein kinase Lck (LCK, Homo sapiens, UniProt P06239)", "remaining binding": "100%"}
{"target": "Serine/threonine-protein kinase LATS1 (LATS1, Homo sapiens, UniProt O95835)", "remaining binding": "67%"}
{"target": "Receptor-interacting serine/threonine-protein kinase 2 (RIPK2, Homo sapiens, UniProt O43353)", "remaining binding": "100%"}
{"target": "Receptor-type tyrosine-protein kinase FLT3 (FLT3, Homo sapiens, UniProt P36888, D835H)", "remaining binding": "100%"}
{"target": "Activin receptor type-2A (ACVR2A, Homo sapiens, UniProt P27037)", "remaining binding": "97%"}
{"target": "Mitogen-activated protein kinase 13 (MAPK13, Homo sapiens, UniProt O15264)", "remaining binding": "100%"}
{"target": "RAF proto-oncogene serine/threonine-protein kinase (RAF1, Homo sapiens, UniProt P04049)", "remaining binding": "100%"}
{"target": "Phosphatidylinositol 4,5-bisphosphate 3-kinase catalytic subunit alpha isoform (PIK3CA, Homo sapiens, UniProt P42336, H1047Y)", "remaining binding": "76%"}
{"target": "Receptor-interacting serine/threonine-protein kinase 4 (RIPK4, Homo sapiens, UniProt P57078)", "remaining binding": "100%"}
{"target": "Serine/threonine-protein kinase SIK3 (SIK3, Homo sapiens, UniProt Q9Y2K2)", "remaining binding": "100%"}
{"target": "NT-3 growth factor receptor (NTRK3, Homo sapiens, UniProt Q16288)", "remaining binding": "100%"}
{"target": "Cyclin-dependent kinase 4, with cyclin D1 (CDK4, Homo sapiens, UniProt P11802)", "remaining binding": "85%"}
{"target": "Protein-tyrosine kinase 6 (PTK6, Homo sapiens, UniProt Q13882)", "remaining binding": "100%"}
{"target": "Serine/threonine-protein kinase TAO2 (TAOK2, Homo sapiens, UniProt Q9UL54)", "remaining binding": "97%"}
{"target": "Dual specificity tyrosine-phosphorylation-regulated kinase 1A (DYRK1A, Homo sapiens, UniProt Q13627)", "remaining binding": "78%"}
{"target": "Cyclin-dependent kinase 4 (CDK4, Homo sapiens, UniProt P11802)", "remaining binding": "93%"}
{"target": "Ribosomal protein S6 kinase alpha-6, N-terminal kinase domain (RPS6KA6, Homo sapiens, UniProt Q9UK32)", "remaining binding": "100%"}
{"target": "Serine/threonine-protein kinase WNK2 (WNK2, Homo sapiens, UniProt Q9Y3S1)", "remaining binding": "100%"}
{"target": "Cyclin-dependent kinase 11B (CDK11B, Homo sapiens, UniProt P21127)", "remaining binding": "100%"}
{"data": "Block 2", "target": "ATF5, bZIP domain (human)", "technique": "DHFR protein complementation", "matrix": "yeast", "setting": "single substitutions, most at no-binding floor", "baseline": "wild-type JUN-FOS pair", "direction": "higher = stronger binding", "starting sequence": "JUN, bZIP domain (human); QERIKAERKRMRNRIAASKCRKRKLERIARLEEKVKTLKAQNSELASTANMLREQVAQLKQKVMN; partner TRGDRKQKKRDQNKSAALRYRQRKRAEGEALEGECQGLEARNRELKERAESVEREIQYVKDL"}
{"Change": "A49F", "binding fitness": "-1.48 natural log"}
{"Change": "L38W", "binding fitness": "-1.53 natural log"}
{"Change": "L45C", "binding fitness": "-1.49 natural log"}
{"Change": "I28K", "binding fitness": "-1.3 natural log"}
{"Change": "E33G", "binding fitness": "-1.4 natural log"}
{"Change": "A29V", "binding fitness": "-1.54 natural log"}
{"Change": "V56T", "binding fitness": "-1.57 natural log"}
{"Change": "L45K", "binding fitness": "-1.59 natural log"}
{"data": "Block 3", "target": "CCNF, cyclin fold, Cln2 fusion (human)", "technique": "yeast growth competition, sequencing", "matrix": "yeast", "setting": "strong parent motif", "baseline": "not given", "direction": "higher = stronger binding", "starting sequence": "PKMYT1 docking peptide (human); SFEPRNLLSLFED"}
{"Change": "P4K", "normalised enrichment score": 0.197}
{"Change": "F11H", "normalised enrichment score": 0.253}
{"Change": "F2D", "normalised enrichment score": -0.546}
{"Change": "L7K", "normalised enrichment score": -0.808}
{"Change": "F11N", "normalised enrichment score": -0.444}
{"Change": "P4A", "normalised enrichment score": 0.201}
{"Change": "E3G", "normalised enrichment score": 1.21}
{"Change": "S9N", "normalised enrichment score": 1.26}
{"data": "Block 4", "Compound": "COc1ccc(-c2cnc3c(-c4ccsc4)cnn3c2)cc1", "read-out": "enzyme activity", "action": "inhibitor", "concentration": "0.5 µM", "baseline": "control"}
{"target": "MAP kinase-activated protein kinase 2 (MAPKAPK2, Homo sapiens, UniProt P49137)", "remaining activity [%]": 95.8}
{"target": "Tyrosine-protein kinase FRK (FRK, Homo sapiens, UniProt P42685)", "remaining activity [%]": 85.6}
{"target": "Activin receptor type-1B (ACVR1B, Homo sapiens, UniProt P36896)", "remaining activity [%]": 100}
{"target": "Fibroblast growth factor receptor 3 (FGFR3, Homo sapiens, UniProt P22607)", "remaining activity [%]": 81.5}
{"target": "Angiopoietin-1 receptor (TEK, Homo sapiens, UniProt Q02763)", "remaining activity [%]": 99.1}
{"target": "Serine/threonine-protein kinase TAO2 (TAOK2, Homo sapiens, UniProt Q9UL54)", "remaining activity [%]": 97.4}
{"target": "Mitogen-activated protein kinase kinase kinase 14 (MAP3K14, Homo sapiens, UniProt Q99558)", "remaining activity [%]": 106}
{"target": "Ephrin type-A receptor 3 (EPHA3, Homo sapiens, UniProt P29320)", "remaining activity [%]": 93.4}
{"target": "Tyrosine-protein kinase Lck (LCK, Homo sapiens, UniProt P06239)", "remaining activity [%]": 81.6}
{"target": "Serine/threonine-protein kinase ULK2 (ULK2, Homo sapiens, UniProt Q8IYT8)", "remaining activity [%]": 103}
{"target": "Casein kinase I isoform gamma-2 (CSNK1G2, Homo sapiens, UniProt P78368)", "remaining activity [%]": 82.3}
{"target": "Ribosomal protein S6 kinase alpha-2 (RPS6KA2, Homo sapiens, UniProt Q15349)", "remaining activity [%]": 87.5}
{"target": "Serine/threonine-protein kinase ULK3 (ULK3, Homo sapiens, UniProt Q6PHR2)", "remaining activity [%]": 79.4}
{"target": "Serine/threonine-protein kinase TBK1 (TBK1, Homo sapiens, UniProt Q9UHD2)", "remaining activity [%]": 77.7}
